Measurements pooled from the literature.
Every numbered part comes from another study and shows a few of its results, in no order. Values joined by “and” are separate records of one study, mostly repeats; a detail may differ.
Sequence of UniProt Q8NE63 (whole entry, looked up): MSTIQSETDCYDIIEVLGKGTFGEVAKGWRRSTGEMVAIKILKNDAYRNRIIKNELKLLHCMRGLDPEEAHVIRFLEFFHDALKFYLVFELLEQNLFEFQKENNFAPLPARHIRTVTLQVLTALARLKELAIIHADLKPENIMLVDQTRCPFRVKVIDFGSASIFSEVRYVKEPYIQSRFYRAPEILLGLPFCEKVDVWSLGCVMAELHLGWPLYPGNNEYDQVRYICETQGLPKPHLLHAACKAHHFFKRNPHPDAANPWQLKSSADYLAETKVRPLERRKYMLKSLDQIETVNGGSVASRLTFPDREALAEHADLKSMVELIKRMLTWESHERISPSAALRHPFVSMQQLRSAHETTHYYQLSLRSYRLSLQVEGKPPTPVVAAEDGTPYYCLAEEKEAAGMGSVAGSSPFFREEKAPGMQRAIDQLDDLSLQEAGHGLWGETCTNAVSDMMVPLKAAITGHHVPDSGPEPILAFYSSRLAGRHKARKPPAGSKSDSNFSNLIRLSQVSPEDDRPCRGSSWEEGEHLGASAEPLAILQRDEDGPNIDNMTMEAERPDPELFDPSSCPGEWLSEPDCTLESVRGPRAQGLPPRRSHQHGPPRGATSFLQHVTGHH
Sequence of UniProt Q9NWZ3 (whole entry, looked up): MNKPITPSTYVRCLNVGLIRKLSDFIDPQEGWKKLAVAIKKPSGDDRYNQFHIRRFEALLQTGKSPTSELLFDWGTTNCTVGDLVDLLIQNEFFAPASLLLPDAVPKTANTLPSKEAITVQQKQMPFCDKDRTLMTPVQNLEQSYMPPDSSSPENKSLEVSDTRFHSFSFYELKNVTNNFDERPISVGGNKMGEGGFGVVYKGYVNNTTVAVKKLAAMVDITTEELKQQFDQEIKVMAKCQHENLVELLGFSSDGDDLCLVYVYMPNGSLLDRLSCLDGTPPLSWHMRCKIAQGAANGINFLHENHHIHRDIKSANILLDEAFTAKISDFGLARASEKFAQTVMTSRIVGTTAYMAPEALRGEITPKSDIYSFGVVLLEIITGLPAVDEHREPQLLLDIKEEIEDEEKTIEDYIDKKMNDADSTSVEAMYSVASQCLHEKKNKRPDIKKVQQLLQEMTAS
Sequence of UniProt Q9H4B4 (whole entry, looked up): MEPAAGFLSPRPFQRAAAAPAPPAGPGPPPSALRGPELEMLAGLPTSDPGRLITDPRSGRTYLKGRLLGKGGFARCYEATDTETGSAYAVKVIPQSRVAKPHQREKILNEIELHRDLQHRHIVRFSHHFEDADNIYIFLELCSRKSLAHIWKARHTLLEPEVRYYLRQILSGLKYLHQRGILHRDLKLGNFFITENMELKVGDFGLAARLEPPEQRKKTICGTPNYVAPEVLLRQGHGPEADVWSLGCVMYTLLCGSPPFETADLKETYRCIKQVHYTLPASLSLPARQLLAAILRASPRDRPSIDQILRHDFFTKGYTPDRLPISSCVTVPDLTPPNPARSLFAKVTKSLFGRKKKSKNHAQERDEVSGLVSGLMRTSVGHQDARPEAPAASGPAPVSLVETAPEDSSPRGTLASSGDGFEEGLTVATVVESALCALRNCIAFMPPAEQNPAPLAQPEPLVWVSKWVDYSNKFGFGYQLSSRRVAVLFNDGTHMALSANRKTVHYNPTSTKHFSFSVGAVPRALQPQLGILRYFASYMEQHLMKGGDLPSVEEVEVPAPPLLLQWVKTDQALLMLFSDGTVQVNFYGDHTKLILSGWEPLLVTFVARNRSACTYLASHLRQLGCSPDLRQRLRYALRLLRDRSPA
Sequence of UniProt Q9Y2U5 (whole entry, looked up): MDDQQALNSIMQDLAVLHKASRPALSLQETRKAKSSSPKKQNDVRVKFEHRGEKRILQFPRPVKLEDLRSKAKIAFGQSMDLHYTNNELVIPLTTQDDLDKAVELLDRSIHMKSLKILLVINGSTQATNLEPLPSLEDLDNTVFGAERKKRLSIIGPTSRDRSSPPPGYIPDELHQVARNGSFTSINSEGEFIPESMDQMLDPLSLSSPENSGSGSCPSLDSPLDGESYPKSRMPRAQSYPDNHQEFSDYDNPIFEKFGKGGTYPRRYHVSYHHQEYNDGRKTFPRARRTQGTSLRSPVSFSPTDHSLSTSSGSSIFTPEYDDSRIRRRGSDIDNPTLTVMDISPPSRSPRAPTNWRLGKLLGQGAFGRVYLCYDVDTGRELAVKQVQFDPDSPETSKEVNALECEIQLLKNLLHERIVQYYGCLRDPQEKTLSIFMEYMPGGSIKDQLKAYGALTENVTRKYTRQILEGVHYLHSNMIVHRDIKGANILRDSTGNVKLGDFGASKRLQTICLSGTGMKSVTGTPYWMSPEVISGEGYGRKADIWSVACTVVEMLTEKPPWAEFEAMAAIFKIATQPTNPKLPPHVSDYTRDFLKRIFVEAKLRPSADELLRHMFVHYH
Sequence of UniProt O95747 (whole entry, looked up): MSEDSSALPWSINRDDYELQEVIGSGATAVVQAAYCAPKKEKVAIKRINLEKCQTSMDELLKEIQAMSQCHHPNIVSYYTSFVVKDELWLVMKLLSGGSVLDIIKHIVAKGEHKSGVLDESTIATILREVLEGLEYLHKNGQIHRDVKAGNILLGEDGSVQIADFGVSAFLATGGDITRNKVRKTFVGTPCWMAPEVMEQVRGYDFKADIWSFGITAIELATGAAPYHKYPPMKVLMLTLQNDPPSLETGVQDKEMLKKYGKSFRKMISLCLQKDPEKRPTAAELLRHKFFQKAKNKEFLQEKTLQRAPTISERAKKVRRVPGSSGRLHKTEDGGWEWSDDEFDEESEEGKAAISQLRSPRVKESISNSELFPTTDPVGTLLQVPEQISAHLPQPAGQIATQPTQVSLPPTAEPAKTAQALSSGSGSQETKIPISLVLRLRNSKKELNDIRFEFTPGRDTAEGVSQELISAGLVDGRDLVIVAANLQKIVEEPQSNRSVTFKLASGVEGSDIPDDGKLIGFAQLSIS

Sample 1
Structure (SMILES): Cc1ccc(O)c(C)c1-c1cnc2[nH]c(-c3cnc(N)nc3)cc2c1C#N
PKMYT1: Membrane-associated tyrosine- and threonine-specific cdc2-inhibitory kinase (PKMYT1, Homo sapiens, UniProt Q99640)
Sequence of UniProt Q99640 (whole entry, looked up): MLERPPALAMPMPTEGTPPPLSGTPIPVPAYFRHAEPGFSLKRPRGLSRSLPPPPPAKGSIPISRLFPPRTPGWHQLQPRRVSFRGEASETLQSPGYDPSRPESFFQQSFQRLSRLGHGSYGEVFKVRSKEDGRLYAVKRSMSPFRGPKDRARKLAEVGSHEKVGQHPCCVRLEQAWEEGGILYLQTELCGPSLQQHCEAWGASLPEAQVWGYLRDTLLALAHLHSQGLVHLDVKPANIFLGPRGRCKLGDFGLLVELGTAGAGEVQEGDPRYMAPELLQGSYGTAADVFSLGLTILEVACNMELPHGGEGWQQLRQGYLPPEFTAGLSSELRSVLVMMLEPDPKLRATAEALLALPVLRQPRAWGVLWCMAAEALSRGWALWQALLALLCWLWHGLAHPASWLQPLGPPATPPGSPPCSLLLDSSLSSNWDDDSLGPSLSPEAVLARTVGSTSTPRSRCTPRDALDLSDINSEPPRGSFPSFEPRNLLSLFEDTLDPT
target or system	assay	conditions	inhibition
PKMYT1		0.00015 µM	-4.27% and -2.99%
HCC1806	cell proliferation	370.37 nM	59.4%
HCC1569	cell proliferation	1.52 nM	1.36%
KLE	cell proliferation	1111.11 nM	44.3%
KLE	cell proliferation	123.5 nM	4.49%
HuCCT-1	cell proliferation	123.46 nM	5.67%
HCC1569	automated capillary immunoblot, measured: CDK1 phospho-Thr14	1.37 nM	10.9%
KLE	cell proliferation	3333.33 nM	88.9%
NCI-H1648	cell proliferation	28.71 nM	-16.3%
PKMYT1	enzyme activity, inhibitor	1.37 nM	31.4%
HCC1569	automated capillary immunoblot, measured: CDK1 phospho-Thr14	0.05 nM	20.7%
MKN-1	cell proliferation	13.72 nM	1.3%
NCI-H1648	cell proliferation	3.19 nM	-8.13%
HuCCT-1	cell proliferation	370.37 nM	36.3%
PKMYT1	cell-free assay, TR-FRET	1.37 nM	23.5%
HCC1569	cell proliferation	1111.11 nM	86.6%
HuCCT-1	cell proliferation	3333.33 nM	96.3%
NCI-H1648	cell proliferation	2325.58 nM	36.2%
HCC1569	automated capillary immunoblot, measured: CDK1 phospho-Thr14	0.15 nM	2.75%
NCI-H1648	cell proliferation	9.57 nM	-13.3%
HCC1569	cell proliferation	13.72 nM	-0.56%

Sample 2 — effect on: thermal unfolding; method: differential scanning fluorimetry; tested at: 5.5 µM; direction: higher = more unfolded
SMILES: C[C@@H]1CN(c2ccc(-c3cc(C(=O)NCCOCCOCCOCCOCCOCCOCCNC(=O)/C=C/c4[nH]cc(C(=O)N[C@@H](CC(N)=O)c5ccc(F)c(Cl)c5)c4-c4ccc(Cl)cc4F)ccc3F)cc2NC(=O)c2ccc(F)cc2C(F)(F)F)C[C@H](C)N1C
WDR5: WD repeat-containing protein 5 (WDR5, Homo sapiens, UniProt P61964)
DCAF1: DDB1- and CUL4-associated factor 1 (DCAF1, Homo sapiens, UniProt Q9Y4B6)
Sequence of UniProt Q9Y4B6 (whole entry, looked up): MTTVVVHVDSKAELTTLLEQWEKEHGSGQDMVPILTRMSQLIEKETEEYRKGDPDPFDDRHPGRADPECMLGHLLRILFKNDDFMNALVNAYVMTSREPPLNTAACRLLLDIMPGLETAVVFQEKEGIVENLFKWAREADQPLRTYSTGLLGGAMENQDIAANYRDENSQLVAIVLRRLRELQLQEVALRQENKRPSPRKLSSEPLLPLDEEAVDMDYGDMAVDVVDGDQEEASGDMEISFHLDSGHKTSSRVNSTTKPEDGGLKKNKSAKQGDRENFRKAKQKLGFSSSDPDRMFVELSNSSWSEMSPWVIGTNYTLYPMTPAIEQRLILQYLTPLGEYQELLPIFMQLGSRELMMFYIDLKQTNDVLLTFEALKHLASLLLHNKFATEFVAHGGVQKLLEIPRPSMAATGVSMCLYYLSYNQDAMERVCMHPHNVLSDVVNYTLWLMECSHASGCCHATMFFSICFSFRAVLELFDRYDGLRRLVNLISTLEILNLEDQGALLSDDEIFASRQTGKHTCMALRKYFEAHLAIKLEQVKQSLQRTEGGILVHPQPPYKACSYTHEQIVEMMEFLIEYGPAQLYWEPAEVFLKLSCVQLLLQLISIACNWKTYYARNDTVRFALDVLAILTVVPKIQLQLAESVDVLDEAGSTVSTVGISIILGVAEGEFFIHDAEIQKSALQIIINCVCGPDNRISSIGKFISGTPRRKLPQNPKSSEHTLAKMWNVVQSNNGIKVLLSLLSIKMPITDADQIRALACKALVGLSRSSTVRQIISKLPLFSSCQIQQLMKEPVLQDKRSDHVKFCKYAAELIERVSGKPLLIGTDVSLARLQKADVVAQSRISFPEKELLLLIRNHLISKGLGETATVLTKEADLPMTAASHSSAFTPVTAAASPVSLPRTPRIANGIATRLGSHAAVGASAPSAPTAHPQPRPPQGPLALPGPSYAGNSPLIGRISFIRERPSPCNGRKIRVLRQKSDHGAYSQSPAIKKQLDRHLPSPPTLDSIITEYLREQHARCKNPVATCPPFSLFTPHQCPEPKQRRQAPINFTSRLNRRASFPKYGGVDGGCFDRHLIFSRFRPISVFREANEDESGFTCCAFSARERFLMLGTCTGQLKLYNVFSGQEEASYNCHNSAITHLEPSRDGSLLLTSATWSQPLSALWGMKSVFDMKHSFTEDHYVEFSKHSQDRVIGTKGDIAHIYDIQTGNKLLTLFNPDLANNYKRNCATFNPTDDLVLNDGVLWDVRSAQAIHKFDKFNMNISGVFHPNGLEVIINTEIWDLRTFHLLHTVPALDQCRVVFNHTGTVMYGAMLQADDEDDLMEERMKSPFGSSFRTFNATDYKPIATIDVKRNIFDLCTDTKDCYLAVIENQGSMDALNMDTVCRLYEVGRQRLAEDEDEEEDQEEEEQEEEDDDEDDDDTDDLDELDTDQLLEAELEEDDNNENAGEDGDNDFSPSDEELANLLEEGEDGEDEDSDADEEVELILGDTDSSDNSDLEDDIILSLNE
target	conditions	SYPRO Orange fluorescence
WDR5	82.41 °C	65400 a.u.
DCAF1	36.8 °C	10600 a.u.
WDR5	25.6 °C	13200 a.u.
WDR5	60.81 °C	15200 a.u.
WDR5	29.2 °C	13500 a.u.
WDR5	53.21 °C	16600 a.u.
DCAF1	67.21 °C	51200 a.u.
DCAF1	73.21 °C	45600 a.u.
WDR5	46 °C	14800 a.u.
WDR5	68.01 °C	21700 a.u.
WDR5	51.8 °C	16700 a.u.

Sample 3 — effect on: binding; method: competition with immobilised ligand; tested at: 1 µM
Structure (SMILES): COc1cc(-c2nc3ccc(C(=O)NCCCN(C)C)cc3n2C2CCC2)cc(OC)c1OC
target	remaining binding [%]
Serine/threonine-protein kinase OSR1 (OXSR1, Homo sapiens, UniProt O95747)	100
Tyrosine-protein kinase receptor TYRO3 (TYRO3, Homo sapiens, UniProt Q06418)	90
Proto-oncogene tyrosine-protein kinase receptor Ret (RET, Homo sapiens, UniProt P07949, M918T)	71
Mitotic checkpoint serine/threonine-protein kinase BUB1 (BUB1, Homo sapiens, UniProt O43683)	91
Serine/threonine-protein kinase PLK3 (PLK3, Homo sapiens, UniProt Q9H4B4)	99
Dual specificity protein kinase CLK2 (CLK2, Homo sapiens, UniProt P49760)	83
Microtubule-associated serine/threonine-protein kinase 1 (MAST1, Homo sapiens, UniProt Q9Y2H9)	100
Interleukin-1 receptor-associated kinase 4 (IRAK4, Homo sapiens, UniProt Q9NWZ3)	80
Homeodomain-interacting protein kinase 4 (HIPK4, Homo sapiens, UniProt Q8NE63)	100
Fibroblast growth factor receptor 2 (FGFR2, Homo sapiens, UniProt P21802)	90
Mitogen-activated protein kinase kinase kinase 2 (MAP3K2, Homo sapiens, UniProt Q9Y2U5)	61
Death-associated protein kinase 3 (DAPK3, Homo sapiens, UniProt O43293)	96
Tyrosine-protein kinase ABL1, phosphorylated (ABL1, Homo sapiens, UniProt P00519, T315I)	46
Protein-tyrosine kinase 6 (PTK6, Homo sapiens, UniProt Q13882)	80
Serine/threonine-protein kinase Chk2 (CHEK2, Homo sapiens, UniProt O96017)	100
Serine/threonine-protein kinase Sgk1 (SGK1, Homo sapiens, UniProt O00141)	44
Mitogen-activated protein kinase kinase kinase 19 (MAP3K19, Homo sapiens, UniProt Q56UN5)	99

Sample 4 — cell line: U-87 MG; tested at: concentration not given; reference: DMSO
Structure (SMILES): CCN1/C(=C/C=C2\CCCC(/C=C/C3=[N+](CC)c4ccccc4C3(C)C)=C2NCCCCCCCCN2CCC(Nc3nc4ccccc4n3Cc3ccc(F)cc3)CC2)C(C)(C)c2ccccc21
assay	log2 fold change
measured: SLC26A4 mRNA	-1.83
measured: PEG10 mRNA	-1.24
measured: CXCL3 mRNA	2.46
measured: GEN1 mRNA	-1.46
measured: CMBL mRNA	-1.02
measured: FAM53C mRNA	0.906
measured: C18orf25 mRNA	0.801
measured: PSRC1 mRNA	-2.55
measured: FMNL1 mRNA	-0.848
measured: HSPA9 mRNA	0.978
measured: PIF1 mRNA	-2.44
measured: SHCBP1 mRNA	-2.19
measured: PRC1 mRNA	-1.84
measured: TICRR mRNA	-1.33
measured: DDX3Y mRNA	1.68
measured: S100A2 mRNA	-1.5

Repeated from above (sample 2):
target	conditions	SYPRO Orange fluorescence
WDR5	82.41 °C	65400 a.u.
DCAF1	36.8 °C	10600 a.u.
WDR5	25.6 °C	13200 a.u.
WDR5	60.81 °C	15200 a.u.
WDR5	29.2 °C	13500 a.u.
WDR5	53.21 °C	16600 a.u.
DCAF1	67.21 °C	51200 a.u.
DCAF1	73.21 °C	45600 a.u.
WDR5	46 °C	14800 a.u.
WDR5	68.01 °C	21700 a.u.
